Assay results from different studies.
Numbered parts are unrelated; each lists some results of a single study.

Set 1
Target: Replicase polyprotein 1ab, main protease (rep, Severe acute respiratory syndrome coronavirus 2, UniProt P0DTD1)
Read-out: enzyme activity
Action: inhibitor
Concentration: 20 µM
Notes: primary screen
SMILES | inhibition [%]
O=C(O)C(O)Cc1ccc(O)c(O)c1 (centres unmarked) | 94.8
C=C1C(=O)O[C@H]2[C@H]1CC/C(C)=C/CC[C@@]1(C)O[C@@H]21 | 56.5
c1ccc2sc(SSc3nc4ccccc4s3)nc2c1 | 83.5
CCN(CC)S(=O)(=O)c1cccc(-n2sc3ccccc3c2=O)c1 | 100

Set 2
Target: Sal-like protein 4, full length isoform B (SALL4, Homo sapiens, UniProt Q9UJQ4-2, residues 1-616)
Technique: universal PBM
Molecule type: double-stranded DNA, one strand shown
Sample: in vitro
Concentration: not given
Notes: 8-mer, flanks averaged, mean of replicates
Reading: higher = stronger binding
Construct (chain): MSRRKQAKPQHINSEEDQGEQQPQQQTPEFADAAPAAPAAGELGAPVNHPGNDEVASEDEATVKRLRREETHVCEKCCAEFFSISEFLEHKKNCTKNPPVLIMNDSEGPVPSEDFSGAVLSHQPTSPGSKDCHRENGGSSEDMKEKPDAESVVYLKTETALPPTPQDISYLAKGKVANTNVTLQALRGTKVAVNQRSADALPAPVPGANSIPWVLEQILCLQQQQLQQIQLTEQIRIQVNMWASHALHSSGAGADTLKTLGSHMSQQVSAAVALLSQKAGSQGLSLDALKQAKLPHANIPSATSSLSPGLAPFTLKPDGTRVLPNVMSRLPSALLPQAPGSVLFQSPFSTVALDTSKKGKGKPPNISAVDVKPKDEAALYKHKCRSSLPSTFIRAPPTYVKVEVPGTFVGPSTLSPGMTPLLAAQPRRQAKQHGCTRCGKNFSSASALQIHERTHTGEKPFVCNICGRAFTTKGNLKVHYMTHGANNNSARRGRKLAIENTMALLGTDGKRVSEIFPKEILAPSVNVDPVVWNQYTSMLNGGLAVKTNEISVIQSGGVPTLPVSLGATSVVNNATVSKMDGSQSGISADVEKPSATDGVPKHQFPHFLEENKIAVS
Sequence | E-score
ACCCGCTC | -0.276
AGGGTCCG | -0.331
ATTCCAAC | 0.0436
CAGCTACG | -0.17
ACGTAGCC | -0.088
AGCAGGGA | -0.165
CCATTAAG | 0.0822
AATATCGC | 0.144

Set 3
Cell line: HEK-293T
Read-out: pseudovirus infection
Organism: VSV pseudotyped with SARS-CoV-2 spike
Concentration: 10 µM
Time: 16 h
Baseline: vehicle-treated
SMILES | GFP-positive cells
COc1ccc(CN=c2[nH]c(N3CCC[C@H]3CO)ncc2C(=O)NCc2ncccn2)cc1Cl | 102%
CNC(=O)c1cc(Oc2ccc(NC(=O)Nc3ccc(Cl)c(C(F)(F)F)c3)cc2)ccn1 | 2.35%
CN(C)CC/C=C1/c2ccccc2Sc2ccc(Cl)cc21 | 27.4%
C[C@@](Cc1ccc(O)c(O)c1)(NN)C(=O)O | 93.5%

Other studies, line by line
SMILES | target | test | measurement | value
O=C(Nc1cccnc1)N1CCC(Cc2cccc(Oc3ccc(C(F)(F)F)cn3)c2)CC1 | Replicase polyprotein 1ab, polymerase (rep, Severe acute respiratory syndrome coronavirus 2, UniProt P0DTD1) | enzyme activity, inhibitor | IC50 | 10.2 µM
